Measurements collected from several papers.
“And” joins repeats or separate records; there may be more than shown. Numbers after ± are the reported error.

The inhibition of C[C@H]1CCC/C=C/[C@@H]2C[C@H](O)C[C@H]2[C@H](O)/C=C/C(=O)O1 is reported as 95.9% (BT-12; cell viability, MTT; 10 µM, 72 h).
For COc1cc([C@@H]2c3cc4c(cc3[C@@H](O[C@@H]3O[C@@H]5CO[C@@H](C)O[C@H]5[C@H](O)[C@H]3O)[C@H]3COC(=O)[C@H]23)OCO4)cc(OC)c1O, the selectivity ratio was ~2.5 (HCT-116, Caco-2 over CCD-18Co; cytotoxicity, MTS; 72 h; baseline: cancer over non-cancerous cells).
For Nc1ncnc2c1ncn2[C@@H]1O[C@@H]2COP(=O)(O)O[C@H]3[C@@H](O)[C@H](n4cnc5c(=O)[nH]cnc54)O[C@@H]3COP(=O)(O)O[C@H]2[C@H]1O, “pathway fold enrichment” read 2.47 (HFF-1; RNA sequencing, refers to: Axon guidance; downregulated pathway; baseline: Zika virus alone).
Under “fitted bottom MyBP-C/MYH ratio”, CC1=C(O)C(=O)C=C2C1=CC=C1[C@@]2(C)CC[C@@]2(C)[C@@H]3C[C@](C)(C(=O)O)CC[C@]3(C)CC[C@]12C is recorded as 0% (iPSC-derived cardiomyocytes; concentration-response fit; baseline: vehicle).
Cn1cc2cc(C(F)(F)c3nnc4ccc(-c5cnn(C6CC6)c5)nn34)c(F)cc2n1 — result for “cells in G1 phase”: 66.8% and 60.1% and 64.2% (MKN-45; PI flow cytometry; 20 nM, 24 h).
CC(C)[C@H](N)C(=O)N1CCC[C@H]1B(O)O has an IL-1β release of 12.7 pg/mL and 22.6 pg/mL and 11.6 pg/mL (Ker-CT keratinocytes, GSDMD/GSDME double knockout; inducer, ELISA; concentration not given).
For O=S(=O)(c1ccc(O)cc1)c1ccc(O)cc1, “G1 phase cells” read 77.4 ± 6.33% (HepG2 spheroids; Hoechst flow cytometry; 0.10 µM, 96 h).
CCC(C)C(C(CC(=O)N1CCCC1C(OC)C(C)C(=O)NC(Cc1ccccc1)C(=O)O)OC)N(C)C(=O)C(NC(=O)C(C(C)C)N(C)C(=O)CCSSc1ccccn1)C(C)C (centres unmarked) gave a maximum killing of ~50% (HeLa; MTT; 10 µM, 2 h).
For Oc1ccc(C(c2ccc(O)cc2)(C(F)(F)F)C(F)(F)F)cc1, “G2 phase cells” read 20.2 ± 2.31% (HepG2 spheroids; Hoechst flow cytometry; 0.01 µM, 96 h).
The CC50 of CN1CCN(C2(CNC3CCN(c4cccc(-c5cc6cc(F)ccc6[nH]5)c4)CC3)CCC2)CC1 is reported as 6.2 µM (SK-OV-3).
Under apoptotic cells, CCC(=O)N(CCC#N)c1ccc2c(c1)OCCN2CC(=O)NCC(=O)Nc1ccc(C(=O)NCCCCCCC(=O)NO)cc1.O=C(O)C(F)(F)F is recorded as “no effect” (MM1.S; annexin V/PI flow cytometry; 10 µM, 48 h).
CN1C(=O)C2(CCN(C(=O)c3ccc(/C=C4\Oc5c(C(N)=O)cccc5C4=O)s3)CC2)c2ccccc21 — result for PARylation: “inhibited” (SUM149; cellular PARylation, inhibitor, Western blot; added: H2O2).
For Cn1nccc1Nc1nccc(-c2ccn([C@H](CO)c3ccc(Cl)c(F)c3)c(=O)c2)n1, the PI-positive cells was 5.42 count and 4.67 count and 6.58 count (HCT116; IncuCyte; concentration not given, 24 (unit not given)).
N.N.[Cl][Pt][Cl] has an EC50 of 27.8 ± 11.1 µM (PPC-1; viability, MTT; 72 h).
With O=C(Nc1ccc2[nH]nc(-c3ccncc3)c2c1)[C@@H]1CCN(CC(=O)N2CCN(c3ccc(-c4ncccn4)cc3)CC2)C1 the PI-positive cells was 2.58 count and 3.17 count and 4.25 count (HCT116; IncuCyte; concentration not given, 12 (unit not given)).
The viability of Cc1nn(-c2nc3c(F)cc(F)cc3s2)c(O)c1C(c1ccc(C(F)(F)F)cc1)c1c(C)nn(-c2nc3c(F)cc(F)cc3s2)c1O is reported as 106% and 98.6% and 102% and 101% and 103% (RAW-ISG; CCK-8; 6.25 µM).
The CC50 of Cn1cncc1C1=CN(c2ncnc3[nH]cnc23)CCS1 is reported as > 200 µM (IGROV-1; ovarian cancer).
The LC50 of COc1cc(CCC[P+](c2ccccc2)(c2ccccc2)c2ccccc2)c(OC)c2c1OCO2.[I-] is reported as > -4 log M (SR; SRB).
CCN(CC)c1ccc(C=NNC(=O)CSc2nc3ccccc3c(=O)n2Cc2ccc(S(N)(=O)=O)cc2)c(O)c1 gave a CC50 of > 100 µM (SNB-75; NCI five-dose screen).
With COc1ccc2c(c1)[nH]c1c(C)nccc12 the methylation reduction was 0.55% (DU-145; bisulfite pyrosequencing, refers to: RASSF1A promoter CpG site 30; concentration not given; baseline: vehicle).
For O=c1[nH]sc2cc(F)ccc12, the efficacy was 62% (C127 LDR GFP reporter cells; silenced GFP reporter induction, activator, high-content imaging; retest, two-run mean).
Under “fitted bottom MyBP-C level”, C[C@]12CC[C@H](O)C[C@H]1CC[C@@H]1[C@@H]2CC[C@]2(C)[C@@H](C3=CC(=O)OC3)[C@@H](O)C[C@]12O is recorded as 0% (iPSC-derived cardiomyocytes; concentration-response fit; concentration not given; baseline: vehicle).
With COc1c(C)c2c(c(O)c1C/C=C(\C)CCC(=O)O)C(=O)OC2 the IC50 was 1660 nM (SNB-75; cell proliferation; brain cancer).
C/C=C(/C)C(=O)O[C@H]1C(C)=C2[C@H]([C@@H]1OC(=O)CCCCCCC)[C@@](C)(OC(C)=O)C[C@H](OC(=O)CCC)[C@@]1(O)[C@H]2OC(=O)[C@@]1(C)O: “normalized enrichment score” -1.62 (HEK-293T; RNA-seq GSEA, refers to: Hallmark apical junction; 500 nM, 6 h; direction not given).
The GI50 of Nc1ncc(-c2nc(N3CCOCC3)nc(N3CCOCC3)n2)c(C(F)F)n1 is reported as 340 nM (786-O; cell growth; 72 h).
For CO[C@H]1/C=C\C=C(/C)C(=O)NC2=CC(=O)C(NCCN(C)C)=C(C[C@@H](C)C[C@H](OC)[C@H](O)[C@@H](C)/C=C(\C)[C@@H]1OC(N)=O)C2=O, the EC50 was 1.1 µM (iPSC-derived cardiomyocytes; concentration-response curve, refers to: MyBP-C/MYH ratio; 24 h).
COc1c(CCC[P+](c2ccccc2)(c2ccccc2)c2ccccc2)cc2c(c1OC)OCO2.[I-] gave a TGI of -4.37 log M (NCI-H226; SRB).
O=S(=O)(Nc1ccc(-c2nc3cc(NS(=O)(=O)c4cccc(C(F)(F)F)c4)ccc3o2)cc1)c1cccc(C(F)(F)F)c1 gave an EC50 of 15 µM (DLD-1 colorectal cancer; 48 h).
Under “inhibition of proliferation”, O=S(=O)(Nc1ccc(-c2n[nH]c(=S)o2)cc1)c1ccc(C(F)(F)F)cc1 is recorded as 11% (MCF7 transfected with human P2X7R; 10 µM, added: Bz-ATP 100 µM; baseline: Bz-ATP alone).
CC(c1ccccc1)(c1ccc(O)cc1)c1ccc(O)cc1 — result for “S phase cells”: 6.21 ± 0.79% (HepG2 spheroids; Hoechst flow cytometry; 40 µM, 24 h).
CCNC(=O)[C@H]1O[C@@H](n2cnc3c(N)ncnc32)[C@H](O)[C@@H]1O gave an ERK1/2 activation of 49 % above basal (H9c2; agonist; concentration not given, 5 min).
C[C@@H]1O[C@@H](O[C@H]2C[C@@H](O)[C@]3(CO)[C@H]4[C@H](O)C[C@]5(C)[C@@H](C6=CC(=O)OC6)CC[C@]5(O)[C@@H]4CC[C@]3(O)C2)[C@H](O)[C@H](O)[C@H]1O has an EC50 of 0.42 µM (iPSC-derived cardiomyocytes; concentration-response curve, refers to: MyBP-C protein level; 24 h).
Oc1cc(Cl)ccc1Oc1ccc(Cl)cc1Cl: “point of departure” 18.6 µM (HepG2; high content imaging, refers to: cell count; 24 h, distribution mode 2).
For N.N.[Cl][Pt][Cl], “cells in G2 phase” read 5% (NCI-H82; PI flow cytometry; 10 µM, 24 h).
CC(C)N1CCC(NC2CCN(c3cccc(-c4cc5cc(F)ccc5[nH]4)c3)CC2)CC1 gave a GI50 of 1850 nM (IGROV-1).

Excerpt of the above:
For O=S(=O)(c1ccc(O)cc1)c1ccc(O)cc1, “G1 phase cells” read 77.4 ± 6.33% (HepG2 spheroids; Hoechst flow cytometry; 0.10 µM, 96 h).
CCC(C)C(C(CC(=O)N1CCCC1C(OC)C(C)C(=O)NC(Cc1ccccc1)C(=O)O)OC)N(C)C(=O)C(NC(=O)C(C(C)C)N(C)C(=O)CCSSc1ccccn1)C(C)C (centres unmarked) gave a maximum killing of ~50% (HeLa; MTT; 10 µM, 2 h).
For Oc1ccc(C(c2ccc(O)cc2)(C(F)(F)F)C(F)(F)F)cc1, “G2 phase cells” read 20.2 ± 2.31% (HepG2 spheroids; Hoechst flow cytometry; 0.01 µM, 96 h).
